Experimental data of several laboratories.
Lines come from different studies, so protocols differ. ± gives the spread as reported.

COc1cc(OC)c(/C=C/S(=O)(=O)Cc2ccc(OC)c(NCC(=O)O)c2)c(OC)c1 — AUC(0-inf) (cancer patients, phase I, plasma; oral, 140 mg twice daily, day 21 cycle 1): 4590 ± 4850 ng·h/mL
CC(C)=CCC[C@](C)(O[C@@H]1O[C@H](CO)[C@@H](O)[C@H](O)[C@H]1O)[C@H]1CC[C@]2(C)[C@@H]1[C@H](O)C[C@@H]1[C@@]3(C)CC[C@H](O[C@@H]4O[C@H](CO)[C@@H](O)[C@H](O)[C@H]4O[C@@H]4O[C@H](CO)[C@@H](O)[C@H](O)[C@H]4O)C(C)(C)[C@@H]3CC[C@]12C — AUC(0-inf) (LC-MS/MS; healthy volunteers, serum; oral, 3 g fermented red ginseng): 188 ± 95.9 ng·h/mL
COc1ccc2c3c1O[C@H]1C[C@@H](OC(=O)c4ccccc4)C=C[C@@]31CCN(C)C2 — AUC(0-inf) (healthy elderly men, plasma; intranasal, 44 mg, single dose): 112 ng·h/mL
CN1C(=O)[C@@H](NC(=O)c2nnc(Cc3ccccc3)[nH]2)COc2ccccc21 — AUC(0-inf) (healthy men, plasma; oral, 20 mg once daily, day 14, geometric mean): 1150 ng·h/mL
CCOc1ccc(Cc2cc([C@@H]3S[C@H](CO)[C@@H](O)[C@H](O)[C@H]3O)c(OC)cc2C)cc1 — AUC(0-inf) (Japanese type 2 diabetes patients, plasma; oral, 5 mg single dose, eGFR 30-44 mL/min/1.73 m^2): 2060 ± 414 ng·h/mL
Cc1nc(-c2ccc(OCC(C)C)c(C#N)c2)sc1C(=O)O — AUC(0-inf) (healthy Chinese adult volunteers, plasma; oral, 80 mg single dose, fed): 14100 ± 4010 ng·h/mL
CNC(=O)c1ccc(-c2cnc3ncc(Cc4ccc5ncccc5c4)n3n2)cc1F — AUC(0-inf) (mild hepatic impairment; oral, 200 mg, mean): 4870 ng·h/mL
CC(C)=CCC[C@](C)(O[C@@H]1O[C@H](CO)[C@@H](O)[C@H](O)[C@H]1O)[C@H]1CC[C@]2(C)[C@@H]1[C@H](O)C[C@@H]1[C@@]3(C)CC[C@H](O[C@@H]4O[C@H](CO)[C@@H](O)[C@H](O)[C@H]4O)C(C)(C)[C@@H]3CC[C@]12C — AUC(0-inf) (LC-MS/MS; healthy volunteers, serum; oral, 3 g fermented red ginseng): 30.2 ± 41.9 ng·h/mL
COc1cccc(N2CCN(C3=Nc4c(F)cccc4[C@H](CC(=O)O)N3c3cc(C(F)(F)F)ccc3OC)CC2)c1 — AUC(0-inf) (UHPLC-MS/MS; healthy women, plasma; intravenous infusion, 240 mg single dose, 30 min infusion, HPβCD formulation): 32500 ± 9270 ng·h/mL
C[C@H]1Oc2cc(cnc2N)-c2c(nn(C)c2C#N)CN(C)C(=O)c2ccc(F)cc21 — AUC(0-inf) (healthy adults; oral tablet, 100 mg single dose, adjusted geometric mean, added: rabeprazole 20 mg): 8550 ng·h/mL
NC(=O)c1cnc2[nH]ccc2c1N[C@@H]1[C@@H]2CC3C[C@H]1C[C@@](O)(C3)C2 — AUC(0-inf) (healthy Japanese men, plasma; oral, 60 mg, single dose fasted): 783 ng·h/mL

Repeated from above:
COc1cc(OC)c(/C=C/S(=O)(=O)Cc2ccc(OC)c(NCC(=O)O)c2)c(OC)c1 — AUC(0-inf) (cancer patients, phase I, plasma; oral, 140 mg twice daily, day 21 cycle 1): 4590 ± 4850 ng·h/mL
